Assay results from different studies.
Every numbered part comes from another study and shows a few of its results, in no order. Substitutions count along the parent as printed.

Study 1
Target: RING finger protein unkempt homolog, zinc fingers 1-6, GST-SBP tag (UNK, Homo sapiens, UniProt Q9C0B0, residues 30-357)
Chain of UniProt Q9C0B0 (30-357, looked up): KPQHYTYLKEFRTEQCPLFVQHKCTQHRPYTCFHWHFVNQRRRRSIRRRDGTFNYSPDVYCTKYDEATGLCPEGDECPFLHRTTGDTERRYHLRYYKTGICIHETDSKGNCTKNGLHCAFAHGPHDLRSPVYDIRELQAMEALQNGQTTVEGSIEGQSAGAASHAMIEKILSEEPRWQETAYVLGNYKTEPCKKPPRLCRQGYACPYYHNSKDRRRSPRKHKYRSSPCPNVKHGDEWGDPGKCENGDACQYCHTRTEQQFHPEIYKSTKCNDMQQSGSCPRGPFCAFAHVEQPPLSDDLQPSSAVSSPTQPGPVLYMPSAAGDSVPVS
Method: RNA Bind-n-Seq
Molecule type: RNA
Matrix: in vitro
Tested at: not given
Notes: RNA with constant flanks, human and mouse sites, ends assumed
Reference: input RNA pool
Reading: higher = stronger binding
Measurement: bound/input enrichment
Sequence = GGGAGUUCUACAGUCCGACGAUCGUUAUUUAUGGAUUAGAAAAAGCAUGUUUCUAUUUAAGUAAGCUGUAAAAAGUAUUAUUGAAUAUUUACUGUAAAUAUAUGUUCACAUAAAAAAAUAACUUGGAGGGUCUUUGUGUCCCUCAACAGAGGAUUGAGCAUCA; value = 0.257 ratio
Sequence = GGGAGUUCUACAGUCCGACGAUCCAACUGUUGUGAUGAAAAUGGCACCAGGAAGAAGGCUCUAUUUUUCCACUGAAGUUGAAGAUUAGUAAAAUGGUGUCAGAUGGUGACCCUGCUCGCACGCUUUAGUAAUUUUUUAAAGUGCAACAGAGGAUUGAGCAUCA; value = 3.79 ratio
Sequence = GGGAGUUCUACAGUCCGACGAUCGCAAGAGAUGAUGAGGCAGCUGCAGUUGCACUUUCCUCCCUGAUUCAUGCUUUGGAUGACUUAGACAUGGUGGCCAUAGUUCGAUAUGCUUAUGACAAAAGAGCUAAUCCUCAAGUCGGCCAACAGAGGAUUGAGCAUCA; value = 1.7 ratio
Sequence = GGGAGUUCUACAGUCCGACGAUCUUCAAAAAGAGAAGAACUGAAAAUGGAAAAUCUAGAAAUUUAAGGCAACGAGGUGAUGAUCAAUAGUUGCAGGAGAGCUUUUUGUACAUGCUUUUAGGACAGAAUGGAGACUUAUACACCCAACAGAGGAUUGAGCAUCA; value = 2.66 ratio
Sequence = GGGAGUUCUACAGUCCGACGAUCGUGAACACAAUGGACCUUGAGAGAGAUGAACCUCUCAAAAGCACCGGCCCUCAGAUUUCUGUUAGUGAAUUUUCUUGCCACUGCUGCUACGACAUCCUGGUUAACCCCACCACCUUGAACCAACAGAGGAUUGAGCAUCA; value = 0.577 ratio
Sequence = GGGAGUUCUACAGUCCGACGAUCAAUGAGCAGCAGAGACUGAGAACCACUGAAGUACACAGUUGGAAGCUGGUGCUGAAAAAAUUAAGAGUUUUGCUGUUAACUCCUUAAGAGGGCUUUAAAGCCUUUUAUAUUAAGUGCCAUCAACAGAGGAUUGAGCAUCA; value = 0.195 ratio
Sequence = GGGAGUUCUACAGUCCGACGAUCAUUUGUUUCUUAUAAUAGCCCCUGGAGGAAUUGCUACACCCCCAGUGUAUGGUCAGCUUCUAGCUUUAUAUUUGCUCCAUAAUGACAUGAAUAAUGCAAGAUAUCUUUGGAAAAGAAUACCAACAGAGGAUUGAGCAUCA; value = 0.548 ratio
Sequence = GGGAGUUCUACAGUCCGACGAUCUGAGCUGCCGAAGCCGCCGUCCUGCUCUCCCGCGUGGGCUUCUCUAAUUCCAUUGUUUUUUUUAGAUUCUCUCGGGCCUAGCCGUCCUUGGAACCCGAUAUUCGGGCUGGGCGGUUCCGCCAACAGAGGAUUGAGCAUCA; value = 0.416 ratio

Study 2
Target: Ras GTPase-activating protein-binding protein 1, full length (G3BP1, Homo sapiens, UniProt Q13283)
Chain of UniProt Q13283 (whole entry, looked up): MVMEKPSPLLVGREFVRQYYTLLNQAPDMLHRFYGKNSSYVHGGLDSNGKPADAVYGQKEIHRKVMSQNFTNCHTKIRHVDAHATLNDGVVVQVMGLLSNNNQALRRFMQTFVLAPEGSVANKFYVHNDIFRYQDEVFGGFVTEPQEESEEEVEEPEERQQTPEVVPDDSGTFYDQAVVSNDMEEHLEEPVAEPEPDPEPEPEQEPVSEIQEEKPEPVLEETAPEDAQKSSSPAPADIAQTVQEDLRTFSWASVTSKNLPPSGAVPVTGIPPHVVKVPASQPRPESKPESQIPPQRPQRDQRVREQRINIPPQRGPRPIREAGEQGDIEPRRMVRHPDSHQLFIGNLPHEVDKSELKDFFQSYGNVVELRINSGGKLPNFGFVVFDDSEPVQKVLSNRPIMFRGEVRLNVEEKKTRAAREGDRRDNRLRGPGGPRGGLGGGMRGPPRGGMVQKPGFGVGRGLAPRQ
Method: RNA Bind-n-Seq
Molecule type: RNA
Matrix: in vitro
Tested at: 200 nM
Notes: whole 134-nt RNA, ends assumed
Together with: 150 mM KCl
Reference: input library
Reading: higher = stronger binding
Measurement: log2 enrichment
Sequence = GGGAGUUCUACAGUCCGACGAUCCACAGACAACACGCACCCACACAGACACAGAGGAAAGGGGUUGGGAUGGGGACAGGGUGCACAGCAGGGCGGGGUAGGACCCCAGCCCCUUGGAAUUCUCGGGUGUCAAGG; value = 1.79
Sequence = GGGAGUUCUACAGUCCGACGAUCACCAUGCAGGUGGGCAUCUUUGGGAAGUGGGGCAAGGGGGGGAUAGAAAGGGGGGUAACACUUUGGGAACAGGUGGUCCCAGGUCGUUUCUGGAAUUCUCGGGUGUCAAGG; value = 0.87
Sequence = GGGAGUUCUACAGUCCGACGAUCUUGGACUAUGGAUCAGGUACUGUGCUCAGCAUCAGAAAAUGGGAUGACAAUGAACAGAGUAACAGGACUAUAUUUCUGAAAAAGGAUGAAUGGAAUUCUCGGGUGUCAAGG; value = -0.349
Sequence = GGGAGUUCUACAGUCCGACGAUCUCCUGUGCUACACAUCGUAUGUACCGAAUCGGGCCCCCCGGGCCCCCCGGGGCCCCCCGGAAAGUAUUAUGUUACGCCGUUCGGAUCUGCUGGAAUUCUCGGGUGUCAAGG; value = -0.346
Sequence = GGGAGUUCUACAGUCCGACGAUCAAGUCCUGUGCUACACAUCGUAUGUACCGAAUCGGGAAAAAGGGAGGGUUUUUGGGAAAGUAUUAUGUUACGCCGUUCGGAUCUGCACUUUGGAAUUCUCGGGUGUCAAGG; value = 0.29
Sequence = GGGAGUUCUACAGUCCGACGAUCUCAAGUCCUGUGCUACACAUCGUAUGUACCGAAUCGGAAAGGGAAAGGGAAAGGGAAAGUAUUAUGUUACGCCGUUCGGAUCUGCACUUCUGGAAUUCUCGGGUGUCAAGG; value = -0.742
Sequence = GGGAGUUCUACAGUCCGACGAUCAAGUCCUGUGCUACACAUCGUAUGUACCGAAUCAAACCCAAACCCAAACCCCCAAAAAAGUAUUAUGUUACGCCGUUCGGAUCUGCACUUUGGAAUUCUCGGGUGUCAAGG; value = -0.725
Sequence = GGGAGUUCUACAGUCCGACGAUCUUGGCUACAAUGCAGAGACACAGAAACUACUAUGCAAGAAUGGGGAAACGCUGCUAGGAGCCGUGAACUUCUUUGUCUCUAGCAUCAACAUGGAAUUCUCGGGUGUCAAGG; value = -1.02
Sequence = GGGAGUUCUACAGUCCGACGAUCCACAGACAACACGCAAACACACAGACACAGAGGGAAGGGGUUGGGAUGGGGACAGGGUGCACAGCAGGGCGGGGUAGGACCCCAGCCCCUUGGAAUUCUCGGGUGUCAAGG; value = 1.36

Study 3
Target: ABI1, truncated, D143A, DHFR fusion (Arabidopsis thaliana)
Method: DHFR PCA, deep sequencing
Matrix: yeast
Notes: methotrexate growth selection, single substitutions
Together with: (+)-ABA 1.4 µM
Reference: wild-type fitted maximum
Reading: higher = stronger binding
Measurement: relative binding score
Parent: PYL1, truncated, DHFR fusion (Arabidopsis thaliana); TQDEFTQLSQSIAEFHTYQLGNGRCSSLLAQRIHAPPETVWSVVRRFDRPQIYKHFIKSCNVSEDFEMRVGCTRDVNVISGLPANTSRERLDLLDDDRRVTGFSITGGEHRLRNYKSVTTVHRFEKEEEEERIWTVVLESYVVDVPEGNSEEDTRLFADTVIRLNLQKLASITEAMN; partner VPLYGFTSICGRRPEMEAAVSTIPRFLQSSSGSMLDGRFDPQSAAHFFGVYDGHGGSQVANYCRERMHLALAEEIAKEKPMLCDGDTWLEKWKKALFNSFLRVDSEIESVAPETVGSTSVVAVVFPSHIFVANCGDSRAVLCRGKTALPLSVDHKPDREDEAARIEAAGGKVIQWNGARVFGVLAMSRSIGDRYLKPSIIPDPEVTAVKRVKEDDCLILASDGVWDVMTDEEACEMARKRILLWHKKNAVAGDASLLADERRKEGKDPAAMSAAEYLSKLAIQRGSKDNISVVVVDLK
Change = F66P; value = 8.8%
Change = D159A; value = -10.4%
Change = T135D; value = -0.318%
Change = R74T; value = -5.98%
Change = L28W; value = 15%
Change = T101E; value = -8.54%
Change = R32M; value = 47.3%
Change = N77L; value = 46.7%
Change = R99Y; value = 80.5%
Change = R24K; value = 71.8%
Change = R49S; value = 46.4%
Change = N61D; value = 60.4%
Change = E64D; value = 64.1%
Change = E4I; value = 53%
Change = T86H; value = 68.2%
Change = Y141S; value = -5.54%
Change = C60G; value = -4.01%
Change = R132Q; value = 85.6%
Change = N22W; value = 17.8%
Change = A170Q; value = 39.3%
Change = D159R; value = -13.6%
Change = D153P; value = -13.9%

Study 4
Target: NFE2L2, bZIP domain (human)
Method: DHFR protein complementation
Matrix: yeast
Notes: single substitutions, most at no-binding floor
Reference: wild-type JUN-FOS pair
Reading: higher = stronger binding
Measurement: binding fitness
Parent: JUN, bZIP domain (human); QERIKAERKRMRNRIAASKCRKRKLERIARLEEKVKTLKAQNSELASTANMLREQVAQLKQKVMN; partner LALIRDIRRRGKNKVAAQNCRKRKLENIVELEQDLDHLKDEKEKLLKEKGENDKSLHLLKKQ
Change = M51L; value = -1.44 natural log
Change = I28K; value = -1.49 natural log
Change = I28G; value = -1.41 natural log
Change = L31K; value = -1.62 natural log
Change = L45Q; value = -1.45 natural log
Change = A49H; value = -1.46 natural log
Change = E32P; value = -1.5 natural log
Change = L31P; value = -1.46 natural log
Change = A46E; value = -1.45 natural log
Change = M51R; value = -1.43 natural log
Change = T37Q; value = -1.42 natural log
Change = E32I; value = -1.57 natural log
Change = K34N; value = -1.4 natural log
Change = K39F; value = -1.48 natural log
Change = R30P; value = -1.25 natural log
Change = K39P; value = -1.48 natural log

Repeated from above (study 1):
Sequence = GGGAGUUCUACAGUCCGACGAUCGUUAUUUAUGGAUUAGAAAAAGCAUGUUUCUAUUUAAGUAAGCUGUAAAAAGUAUUAUUGAAUAUUUACUGUAAAUAUAUGUUCACAUAAAAAAAUAACUUGGAGGGUCUUUGUGUCCCUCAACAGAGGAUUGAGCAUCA; value = 0.257 ratio
Sequence = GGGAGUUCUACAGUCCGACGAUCAAUGAGCAGCAGAGACUGAGAACCACUGAAGUACACAGUUGGAAGCUGGUGCUGAAAAAAUUAAGAGUUUUGCUGUUAACUCCUUAAGAGGGCUUUAAAGCCUUUUAUAUUAAGUGCCAUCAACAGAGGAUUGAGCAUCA; value = 0.195 ratio
Sequence = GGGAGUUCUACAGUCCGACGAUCGCAAGAGAUGAUGAGGCAGCUGCAGUUGCACUUUCCUCCCUGAUUCAUGCUUUGGAUGACUUAGACAUGGUGGCCAUAGUUCGAUAUGCUUAUGACAAAAGAGCUAAUCCUCAAGUCGGCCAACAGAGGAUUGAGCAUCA; value = 1.7 ratio
Sequence = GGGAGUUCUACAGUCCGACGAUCGUGAACACAAUGGACCUUGAGAGAGAUGAACCUCUCAAAAGCACCGGCCCUCAGAUUUCUGUUAGUGAAUUUUCUUGCCACUGCUGCUACGACAUCCUGGUUAACCCCACCACCUUGAACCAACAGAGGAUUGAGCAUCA; value = 0.577 ratio
Sequence = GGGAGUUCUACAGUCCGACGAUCCAACUGUUGUGAUGAAAAUGGCACCAGGAAGAAGGCUCUAUUUUUCCACUGAAGUUGAAGAUUAGUAAAAUGGUGUCAGAUGGUGACCCUGCUCGCACGCUUUAGUAAUUUUUUAAAGUGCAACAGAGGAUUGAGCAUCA; value = 3.79 ratio
